Published values of several laboratories.
Protocols differ between the studies behind these lines.
Organism: Escherichia coli

| Structure (SMILES) | test | test system | conditions | MIC |
| --- | --- | --- | --- | --- |
| c1cc2c(s1)CCOC21CCN(Cc2ccc3c(c2)OCCO3)CC1 | broth microdilution | 3 |  | > 64 µM |
| CC[C@H](C)[C@H](NC(=O)[C@H](CO)NC(=O)[C@H](CO)NC(=O)[C@H](Cc1ccccc1)NC(=O)CN)C(=O)N[C@@H](Cc1ccccc1)C(=O)N[C@@H](CCCNC(=N)N)C(=O)NCC(=O)N[C@H](C(=O)N[C@@H](C)C(=O)N[C@@H](CCCCN)C(=O)N[C@@H](Cc1ccccc1)C(=O)N[C@@H](C)C(=O)N[C@@H](CO)C(=O)N[C@@H](CCCCN)C(=O)NCC(=O)N[C@@H](CC(C)C)C(=O)NCC(=O)N[C@@H](CCCCN)C(N)=O)C(C)C |  | ATCC 8739 | pretreated trypsin 0.5 mg/mL | > 128 µM |
| CCCCCCCCCCCCCCC(=O)N[C@@H](CCCCN)C(=O)N[C@@H](CCCCN)C(=O)N[C@@H](CCCCN)C(=O)N[C@@H](CCCCN)C(=O)N[C@@H](Cc1c[nH]cn1)C(N)=O | broth microdilution | K12, water pH 7 | 18 h, 37 °C | 16 µg/mL |
| c1ccc(CCNC2CCCc3c2[nH]c2ccc(C4CCCCC4)cc32)cc1 (centres unmarked) | broth microdilution | O-19592, cation-adjusted MHB |  | > 128 µg/mL |
| CC1(C)OC2OC(C(CCO)NC(=O)Nc3cccc(NC(=O)NC(CCO)C4OC5OC(C)(C)OC5C4OCc4ccccc4)c3)C(OCc3ccccc3)C2O1 (centres unmarked) | microbial growth, broth dilution |  | 20 h | 76 µg/mL |
| CC(C)C[C@@H]1NC(=O)[C@@H](Cc2ccccc2)NC(=O)[C@H](CCN)NC(=O)[C@@H](NC(=O)[C@H](CN)NC(=O)[C@@H](NC(=O)CC(CN)Cc2ccccc2)[C@@H](C)O)CCNC(=O)[C@H]([C@@H](C)O)NC(=O)[C@H](CCN)NC(=O)[C@H](CCN)NC1=O (some centres unmarked) | broth microdilution | IHMA 558090 reduced polymyxin B susceptibility, cation-adjusted Mueller-Hinton broth |  | 8 µg/mL |
| Cc1cc(N)c2cc(NC(=O)c3ccc4cc(C5CC5)ccc4c3)ccc2n1 |  | hyperporinated ΔtolC |  | 100 µM |
| NC(=O)Nc1nc2cc(Br)ccc2[nH]c1=O | microbial growth, broth dilution | DC2 | 20 h | > 128 µg/mL |
| CC1C(=NOCc2cn(-c3ccccc3)nn2)C(C)C(c2ccc(Br)cc2)OC1c1ccc(Br)cc1 (centres unmarked) | microbial growth, broth dilution | MTCC443 | 24 h | 6.3 µg/mL |
| CC[C@H](C)[C@H](NC(=O)[C@H](C)NC(=O)[C@H](C)NC(=O)[C@H](Cc1ccccc1)NC(=O)[C@H](C)NC(=O)CNC(=O)[C@H](Cc1ccccc1)NC(=O)[C@@H](N)Cc1ccccc1)C(=O)N[C@@H](C)C(=O)N[C@@H](CO)C(=O)N[C@@H](CC(C)C)C(=O)N[C@H](C(=O)N[C@H](C(=O)N1CCC[C@H]1C(=O)N[C@@H](CCCCN)C(=O)N[C@@H](CC(C)C)C(=O)N[C@H](C(=O)N[C@@H](CCC(=O)O)C(=O)N[C@@H](CCCCN)C(=O)N[C@H](C(=O)N[C@@H](CCCCN)C(=O)N[C@@H](CCC(N)=O)C(=O)N[C@@H](C)C(=O)N[C@@H](CCCNC(=N)N)C(N)=O)[C@@H](C)CC)[C@@H](C)CC)[C@@H](C)CC)C(C)C | broth microdilution | ATCC 35218 |  | > 50 µM |
| CCC(O)CC#Cc1ccc(-n2nnc(/C(C)=N\NC(=N)N)c2C)cc1 (centres unmarked) | broth microdilution | JW55031 tolC mutant |  | > 64 µg/mL |
| CCCO[C@H]1[C@H](O)[C@@H](N)[C@@H](O[C@H]2[C@H](O[C@@H]3O[C@H](CO)[C@@H](O[C@H]4O[C@@H](CN)[C@@H](O)[C@H](O)[C@H]4N)[C@H]3O)[C@@H](O)[C@H](N)C[C@@H]2N)O[C@@H]1CO | broth microdilution | clinical isolate AG 003 |  | 32 µg/mL |
| CC(C)C[C@H](NC(=O)[C@H](C)NC(=O)CNC(=O)[C@@H](NC(=O)[C@@H](NC(=O)[C@H](CCCCN)NC(=O)[C@H](CCCCN)NC(=O)[C@H](CC(C)C)NC(=O)[C@H](CC(C)C)NC(=O)[C@H](CCCCN)NC(=O)[C@H](CC(C)C)NC(=O)[C@H](CC(C)C)NC(=O)[C@@H](N)CCCCN)C(C)C)C(C)C)C(=O)NCC(N)=O |  | ATCC 25922, CAMHB | 18 h, 37 °C | 11 µM |
| C[C@@H](N)[C@H](O)CCCCCCCC(=O)CCCCCCCCCCCCCC[C@@H](O[C@@H]1O[C@H](CO)[C@@H](O)[C@H](O)[C@H]1O)[C@@H](N)CO | microbial growth, resazurin | ATCC10536 | 6 h | 14.6 µM |
| CC[C@H](C)[C@H](NC(=O)[C@@H](Cc1ccccc1)NC)C(=O)N[C@@H](CO)C(=O)N[C@H](CCCNC(=N)N)C(=O)N[C@@H](C(=O)N[C@H](C(=O)N[C@@H](CO)C(=O)N[C@H]1C(=O)N[C@@H](C)C(=O)N[C@@H](CC(C)C)C(=O)N[C@@H]([C@@H](C)CC)C(=O)O[C@H]1C)[C@@H](C)CC)[C@@H](C)CC | broth microdilution | ATCC 10798, Mueller-Hinton broth | 16 h, 37 °C | > 8 µg/mL |
| CCCCCCCC/C=C\CCCCc1cc(=O)c2ccccc2n1C | broth microdilution | Luria-Bertani broth |  | > 1000 µg/mL |
| NCCCC[C@@H]1NC(=O)[C@@H](Cc2c[nH]c3ccccc23)NC(=O)[C@H](Cc2c[nH]c3ccccc23)NC(=O)[C@@H](N)CSCc2ccc(cc2)CSC[C@@H](C(N)=O)NC(=O)[C@@H](Cc2c[nH]c3ccccc23)NC(=O)[C@H](Cc2c[nH]c3ccccc23)NC(=O)[C@@H](Cc2c[nH]c3ccccc23)NC(=O)[C@H](CCCCN)NC(=O)[C@@H](CCCCN)NC(=O)[C@H](CCCCN)NC(=O)[C@@H](CCCCN)NC1=O |  | W3110 |  | 64 µg/mL |
| CCCCCCSCC1OC(OC2C(N)CC(N)C(OC3OC(CN)C(O)CC3N)C2O)C(O)C(N)C1O (centres unmarked) |  | TolC, strain R |  | 18.8 µg/mL |
| Cc1cc(N)c2cc(NC(=O)c3ccc4cc(C(=O)N5CCN(C)CC5)ccc4c3)ccc2n1 |  | BW25113 wild type |  | > 200 µM |
| CC(C)C[C@@H]1NC(=O)[C@H](C)NC(=O)[C@@H]2NC(=O)[C@H](CO)NC(=O)[C@@H](CCCCN)NC(=O)[C@H](NC(=O)[C@@H](N)Cc3ccccc3)CCCCCCCC[C@H](NC1=O)C(=O)O[C@H]2C |  | ATCC 10798 | TFA salt | > 32 µg/mL |
| CC[C@H](C)[C@@H]1NC(=O)CNC(=O)[C@H](CCCCN)NC(=O)[C@H](C)NC(=O)[C@H](CCC(=O)O)NC(=O)[C@H](Cc2ccccc2)NC(=O)[C@H](CO)NC(=O)[C@H](CC(C)C)NC(=O)[C@H](C(C)C)NC(=O)[C@H](CC(=O)O)NC(=O)[C@@H](NC(=O)[C@@H](NC(=O)[C@@H](N)C(C)C)[C@@H](C)O)CSSC[C@@H]2NC(=O)[C@H](CO)NC(=O)CNC(=O)CNC(=O)[C@H](CCCCN)NC(=O)[C@H](CCCCN)NC(=O)[C@H](CCCNC(=N)N)NC(=O)[C@H](CC(C)C)NC(=O)[C@H](C)NC(=O)[C@H]([C@@H](C)CC)NC(=O)[C@H](C)NC(=O)[C@H](Cc3c[nH]cn3)NC(=O)[C@H](CC(C)C)NC(=O)[C@H](C)NC(=O)[C@H](CSSC[C@@H](C(=O)N[C@H](C(=O)N[C@@H](C)C(=O)N[C@@H](CCCNC(=N)N)C(=O)N[C@@H](CC(N)=O)C(=O)O)C(C)C)NC(=O)[C@H](C(C)C)NC(=O)CNC(=O)[C@H](CC(N)=O)NC(=O)[C@H](CCC(N)=O)NC2=O)NC(=O)[C@H](C)NC(=O)[C@H](CO)NC(=O)[C@H](Cc2c[nH]cn2)NC(=O)[C@H](CC(N)=O)NC(=O)[C@H](C(C)C)NC(=O)[C@H](C)NC1=O | broth microdilution | KCTC 1682 | 16 h, 37 °C | > 100 µM |
| CC[C@H](C)[C@H](NC(=O)[C@H](CC(C)C)NC(=O)[C@H](CCC(N)=O)NC(=O)[C@H](CO)NC(=O)[C@H](CCCNC(=N)N)NC(=O)[C@@H](N)CO)C(=O)N[C@H](C(=O)N[C@@H](Cc1c[nH]cn1)C(=O)N[C@@H](CCC(N)=O)C(=O)N[C@@H](CCCNC(=N)N)C(=O)N[C@@H](CC(C)C)C(=O)N[C@@H](Cc1ccccc1)C(N)=O)C(C)C | broth microdilution | Mueller Hinton broth |  | > 400 µg/mL |
| CCCCCCCCCCCCCCCCCC(=O)N[C@H](C(=O)N[C@H](C(=O)N[C@H](C(=O)N[C@@H](CCCCN)C(=O)N[C@@H](CCCCN)C(=O)N[C@@H](CCCCN)C(=O)N[C@@H](CCCCN)C(=O)N[C@@H](CCCCN)C(N)=O)C(C)C)C(C)C)C(C)C | broth microdilution | K12 | 16-24 h, 37 °C, prepared at pH 7 | > 32 µg/mL |
| CCCCCCCCCCCCCCCCCCSCC1OC(OC2C(N)CC(N)C(OC3OC(CN)C(O)CC3N)C2O)C(O)C(N)C1O (centres unmarked) |  | BL21(DE3) AAC(6')/APH(2'') |  | > 150 µg/mL |
| CCCCCCCCCCCCCCC(=O)O.O=C1CCCC2C3CCCN4CCCC(CN12)C34 (centres unmarked) | bacterial growth, broth dilution | ATCC 25922 |  | inactive |
| CC[C@H](C)[C@H](NC(=O)[C@H](CCCN)NC(=O)[C@H](CC(N)=O)NC(=O)[C@H](CC(C)C)NC(=O)[C@H](Cc1ccccc1)NC(=O)[C@H](CCCN)NC(=O)[C@H](CCCNC(=N)N)NC(=O)[C@H](CC(C)C)NC(=O)[C@H](CC(C)C)NC(=O)[C@H](CCCN)NC(=O)[C@H](CCCNC(=N)N)NC(=O)[C@H](CC(C)C)NC(=O)CNC(C)=O)C(=O)N[C@@H](CCCN)C(=O)N[C@@H](CCCNC(=N)N)C(N)=O | broth microdilution | ATCC 25922 |  | 3.12 µM |

Repeated from above:
| Structure (SMILES) | test | test system | conditions | MIC |
| --- | --- | --- | --- | --- |
| Cc1cc(N)c2cc(NC(=O)c3ccc4cc(C(=O)N5CCN(C)CC5)ccc4c3)ccc2n1 |  | BW25113 wild type |  | > 200 µM |
| CC(C)C[C@@H]1NC(=O)[C@H](C)NC(=O)[C@@H]2NC(=O)[C@H](CO)NC(=O)[C@@H](CCCCN)NC(=O)[C@H](NC(=O)[C@@H](N)Cc3ccccc3)CCCCCCCC[C@H](NC1=O)C(=O)O[C@H]2C |  | ATCC 10798 | TFA salt | > 32 µg/mL |
| CC[C@H](C)[C@@H]1NC(=O)CNC(=O)[C@H](CCCCN)NC(=O)[C@H](C)NC(=O)[C@H](CCC(=O)O)NC(=O)[C@H](Cc2ccccc2)NC(=O)[C@H](CO)NC(=O)[C@H](CC(C)C)NC(=O)[C@H](C(C)C)NC(=O)[C@H](CC(=O)O)NC(=O)[C@@H](NC(=O)[C@@H](NC(=O)[C@@H](N)C(C)C)[C@@H](C)O)CSSC[C@@H]2NC(=O)[C@H](CO)NC(=O)CNC(=O)CNC(=O)[C@H](CCCCN)NC(=O)[C@H](CCCCN)NC(=O)[C@H](CCCNC(=N)N)NC(=O)[C@H](CC(C)C)NC(=O)[C@H](C)NC(=O)[C@H]([C@@H](C)CC)NC(=O)[C@H](C)NC(=O)[C@H](Cc3c[nH]cn3)NC(=O)[C@H](CC(C)C)NC(=O)[C@H](C)NC(=O)[C@H](CSSC[C@@H](C(=O)N[C@H](C(=O)N[C@@H](C)C(=O)N[C@@H](CCCNC(=N)N)C(=O)N[C@@H](CC(N)=O)C(=O)O)C(C)C)NC(=O)[C@H](C(C)C)NC(=O)CNC(=O)[C@H](CC(N)=O)NC(=O)[C@H](CCC(N)=O)NC2=O)NC(=O)[C@H](C)NC(=O)[C@H](CO)NC(=O)[C@H](Cc2c[nH]cn2)NC(=O)[C@H](CC(N)=O)NC(=O)[C@H](C(C)C)NC(=O)[C@H](C)NC1=O | broth microdilution | KCTC 1682 | 16 h, 37 °C | > 100 µM |
| CC[C@H](C)[C@H](NC(=O)[C@H](CC(C)C)NC(=O)[C@H](CCC(N)=O)NC(=O)[C@H](CO)NC(=O)[C@H](CCCNC(=N)N)NC(=O)[C@@H](N)CO)C(=O)N[C@H](C(=O)N[C@@H](Cc1c[nH]cn1)C(=O)N[C@@H](CCC(N)=O)C(=O)N[C@@H](CCCNC(=N)N)C(=O)N[C@@H](CC(C)C)C(=O)N[C@@H](Cc1ccccc1)C(N)=O)C(C)C | broth microdilution | Mueller Hinton broth |  | > 400 µg/mL |
